Measurements pooled from the literature.
Each numbered part is a random draw from the data of one study; scales do not carry over between parts.

Set 1
Target: Histone acetyltransferase KAT6A, winged helix 2, GST fusion (KAT6A, Homo sapiens, UniProt Q92794, residues 85-181)
Method: protein binding microarray
Form: double-stranded DNA, one strand shown
Matrix: in vitro
Tested at: not given
Setting: 8-mer, flanks averaged, mean of 2 arrays, mostly near background
Reference: not given
Reading: higher = stronger binding
Measurement: E-score
Construct (chain): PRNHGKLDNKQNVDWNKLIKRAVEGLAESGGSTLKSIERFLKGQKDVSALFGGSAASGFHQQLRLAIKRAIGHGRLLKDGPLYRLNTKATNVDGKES
ATCCAACG: -0.0351
CCACGTCC: -0.126
ATACCCAC: -0.0232
TCACCGAA: 0.0287
ACTATGGA: -0.168
CTAGGTCA: -0.0807
TACTGGCA: -0.199
AATCGATT: -0.147

Set 2
Cell line: HEK-293T/ACE2
Tested at: 10 µM
Time: 16 h
Reference: vehicle
Measurement: viability
NS(=O)(=O)c1cc2c(cc1Cl)N=CNS2(=O)=O: 101%
Nc1ccc(S(=O)(=O)Nc2nccs2)cc1: 98.7%
Clc1ccc(CCC(Cn2ccnc2)Sc2c(Cl)cccc2Cl)cc1 (stereo not drawn): 97.7%
CCN(CC)CCOC(=O)c1ccc(N)cc1: 97.2%

Set 3
Target: Replicase polyprotein 1ab, polymerase (rep, Severe acute respiratory syndrome coronavirus 2, UniProt P0DTD1)
Observed: enzyme activity
Action: inhibitor
Tested at: 20 µM
Measurement: inhibition
O=C(O)Cc1ccc2c(c1)C(=O)c1ccccc1CO2: 2.48%
Cn1cc(/C=C/C(=O)c2cccc(F)c2)cc1/C=C/C(=O)NO: 8.59%
Cc1nc2ccccc2n1Cc1ccc(Cl)cc1: 1.87%
COc1ccc(-c2noc(CC(=O)O)c2-c2ccc(OC)cc2)cc1: 5.01%
O[C@H]1[C@H](O)[C@@H](O)[C@H](O)[C@@H](O)[C@H]1O: 15.6%
O=C(O)[C@H](O)[C@H](O)[C@@H](O)[C@H](O)[C@H](O)CO: -2.8%
CC(=O)Nc1cccc(-n2c(=O)n(C3CC3)c(=O)c3c(Nc4ccc(I)cc4F)n(C)c(=O)c(C)c32)c1: -2.08%
Nc1cccc(CNC(=O)c2ccc(Oc3ccc(OCc4cccc(F)c4)cc3)nc2)c1: 5.65%
C=C1C(=O)[C@]23[C@H](O)[C@H]1CC[C@H]2[C@@]12CO[C@]3(O)[C@@H](O)[C@@H]1C(C)(C)CC[C@@H]2O: -7.46%
CCCCc1oc2ccc(NS(C)(=O)=O)cc2c1C(=O)c1ccc(OCCCN(CCCC)CCCC)cc1: 7.38%
N#Cc1c(-c2ccccc2)cc(-c2cc(Br)ccc2O)[nH]c1=O: 21.8%
CCN(CC)C(=O)Nc1ccc(OCC(O)CNC(C)(C)C)c(C(C)=O)c1 (stereo not drawn): -2.2%
COc1ccc2c(Oc3ccc(NC(=O)c4c(C)n(CC(C)(C)O)n(-c5ccccc5)c4=O)nc3)ccnc2c1: 15.8%
COc1cc2ncnc(Nc3ccc(F)c(Cl)c3)c2cc1NC(=O)/C=C/CN1CCCCC1: -1.41%
COc1cccc(OCCCN)c1-c1cc(Nc2cnc(C#N)cn2)n[nH]1: 0.07%
Cc1c(O)c(=O)ccn1C: 1.26%
CCOc1ccn(-c2ccc(F)cc2)c(=O)c1C(=O)Nc1ccc(Oc2ccnc(N)c2Cl)c(F)c1: 0.52%
Oc1ccc(Cl)c2c1CCC2: 2.2%
CN1CCN(c2cccc(Nc3nc4c(-c5ccc(S(C)(=O)=O)cc5)cccn4n3)c2)CC1: 5.47%
O=C(/C=C/c1cccnc1)NCCCCC1CCN(C(=O)c2ccccc2)CC1: -0.18%
C=C1CCN([C@H](C)[C@](O)(Cn2cncn2)c2ccc(F)cc2F)CC1: -3.3%
O=P(O)(O)C(Cl)(Cl)P(=O)(O)O: -5.31%
c1cc(-c2cnn3cc(-c4ccc(OCCN5CCCCC5)cc4)cnc23)ccn1: 9.69%
C(=C\c1ccccc1)/CN1CCN(CCOC(c2ccccc2)c2ccccc2)CC1: 3.49%
CC(C)(CO)Cc1cc(C(C)(C)C)c(O)c(C(C)(C)C)c1: -3.09%

Set 4
Organism: SARS-CoV-2
Observed: cytopathic effect
Cell line: Vero E6
Tested at: 10 µM
Measurement: inhibition
CCc1ccc(/C=C/C(=O)Nc2ccc(C(C)=O)cc2)o1: -1.2%
CCC1=C[C@@H]2CN(C1)Cc1c([nH]c3ccccc13)[C@@](C(=O)OC)(c1cc3c(cc1OC)N(C)[C@H]1[C@@](O)(C(=O)OC)[C@H](OC(C)=O)[C@]4(CC)C=CCN5CC[C@]31[C@@H]54)C2.O=C(O)C(O)C(O)C(=O)O.O=C(O)C(O)C(O)C(=O)O: -16.7%
C/N=c1/nc(-c2ccccc2)n(-c2ccccc2)s1: -11.7%
C[C@@H](CN1CC(=O)NC(=O)C1)N1CC(=O)NC(=O)C1: 9.5%
[NH-]c1c[n+](N2CCOCC2)no1: 0.8%
C[C@H](NC(=O)/C(C#N)=C/c1cccc(Br)n1)c1ccccc1: -24.4%

Set 5
Target: Centromere-binding protein 1, full length, His-tagged (CBF1, Saccharomyces cerevisiae, UniProt P17106, residues 1-351)
Chain of UniProt P17106 (whole entry, looked up): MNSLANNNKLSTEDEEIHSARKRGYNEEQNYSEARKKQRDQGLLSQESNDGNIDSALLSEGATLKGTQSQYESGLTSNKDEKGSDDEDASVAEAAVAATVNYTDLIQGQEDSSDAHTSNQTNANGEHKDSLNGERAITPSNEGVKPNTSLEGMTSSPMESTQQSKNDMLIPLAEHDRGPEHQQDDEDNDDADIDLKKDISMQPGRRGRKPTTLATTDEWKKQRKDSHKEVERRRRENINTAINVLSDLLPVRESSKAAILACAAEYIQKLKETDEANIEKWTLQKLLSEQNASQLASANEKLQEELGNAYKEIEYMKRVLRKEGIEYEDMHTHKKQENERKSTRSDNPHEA
Method: competition protein-binding microarray
Form: double-stranded DNA, one strand shown
Matrix: in vitro
Tested at: 2 µM
Setting: whole 60-bp probe, lowest competitor level
Added: Pho4 competitor, 0.05 µM
Reading: higher = stronger binding
Measurement: fluorescence intensity
TTCCTTTCTCATCCCCTCGTGAAGCGACTCGGCCCCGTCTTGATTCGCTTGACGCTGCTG: 74.1 a.u.
TCAGAAAAGACCATTTGCGTGCTTTTACCATTATGCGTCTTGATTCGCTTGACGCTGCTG: 72.5 a.u.
GTATTCAAGCAAGTACACGTGCGGAAGTTGTACCAGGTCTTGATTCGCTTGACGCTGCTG: 1320 a.u.
CTTCTGTAAATTTGGGGAGTGGGTGGACGCGCCCCGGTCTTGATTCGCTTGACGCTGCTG: 73.9 a.u.
CGGCCTGCAATGTTCCACGTGGACCACTCATCAAACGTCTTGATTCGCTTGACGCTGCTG: 546 a.u.
CATACCCAACCTTTTCACGTGCTCTAAGATATTTGTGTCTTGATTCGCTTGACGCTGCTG: 1690 a.u.
TAAGGCCTCGGCTGGCACATGAGTCGCCGGAGGAGGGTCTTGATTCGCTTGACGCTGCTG: 52.2 a.u.
TAAGAGGAATGGGTGCTCGTGTCCTGGTTACCGAAAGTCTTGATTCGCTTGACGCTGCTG: 65.6 a.u.
